Published values gathered from unrelated publications.
Each numbered part is a random draw from the data of one study; scales do not carry over between parts.

Study 1 — technique: RNA Bind-n-Seq; molecule type: RNA; sample: in vitro; concentration: not given; reference: input RNA pool; direction: higher = stronger binding
Target: RING finger protein unkempt homolog, zinc fingers 1-6, GST-SBP tag (UNK, Homo sapiens, UniProt Q9C0B0, residues 30-357)
UniProt Q9C0B0, sequence (30-357, looked up): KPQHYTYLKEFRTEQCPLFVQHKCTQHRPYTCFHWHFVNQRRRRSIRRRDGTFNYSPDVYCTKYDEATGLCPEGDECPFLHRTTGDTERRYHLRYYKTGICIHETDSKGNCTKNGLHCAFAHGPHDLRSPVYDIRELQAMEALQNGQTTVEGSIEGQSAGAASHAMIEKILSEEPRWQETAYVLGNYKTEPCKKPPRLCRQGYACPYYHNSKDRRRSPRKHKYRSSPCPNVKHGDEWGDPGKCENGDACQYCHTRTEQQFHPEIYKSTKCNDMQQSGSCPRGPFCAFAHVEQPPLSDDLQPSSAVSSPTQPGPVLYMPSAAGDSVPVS
Notes: RNA with constant flanks, human and mouse sites, ends assumed
`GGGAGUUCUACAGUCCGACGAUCCGUUCCUUACGAAUUGGAGCUAAUCGGCGCACAGAAAUUAUAGAAGAUUUGGCCUUCUACUCUAGUACAGUAGUAUCUCUAUUGAUGACCUGUGUAGAAAAAGCAGGAACAGAUGAGAAACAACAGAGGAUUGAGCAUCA` has a bound/input enrichment of 0.722 ratio.
The bound/input enrichment of `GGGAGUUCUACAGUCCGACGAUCAGUUUCCUGCAGUAGGAGGGCAGAUGACUGGCAUCCUUGCUGUAAGGAAGAGCUUUUUCCUUGUGAAUGGGCCUCUUGGCUGUACCCUAGGGUGUGGGAAUUUGCUAGAGUUCCCUGACCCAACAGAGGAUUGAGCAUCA` is reported as 0.102 ratio.
For `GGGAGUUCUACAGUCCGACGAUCCCUAAGCAUCAGGCAGAAGUCCCAUUGGACCUGAAUGAGAGGGUUCCUUCCUGGCAGCUAUUUAGCUUUCCCAUGGAGGACAGUUAUGGGACCAGCUCAGCUCCUCUUGGCUUGAUAGCUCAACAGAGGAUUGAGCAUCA`, the bound/input enrichment was 0.124 ratio.
With `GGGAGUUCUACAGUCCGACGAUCAAGAUUGAUGACAUUCGUAAGCCUGGAGAAUCUGAAGAAUGAAGACAUUGAGAAAACUAUGUAGCAAGAUCCACUUCUGUGAUUAAGUAAAUGGAUGUCUCGUGAUGCAUCUACAGUUAUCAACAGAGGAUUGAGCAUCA` the bound/input enrichment was 0.196 ratio.
The bound/input enrichment of `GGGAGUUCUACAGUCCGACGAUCAUACAGGCAGCCCAUGAUGCCGUGGCACAGGAAGGCCAAUGUCGGGUAGAUGACAAGGUGAAUUUCCAUUUUAUUCUGUUUAACAACGUGGAUGGCCACCUCUAUGAACUUGAUGGACGACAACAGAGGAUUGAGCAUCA` is reported as 0.226 ratio.
With `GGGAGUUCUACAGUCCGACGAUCUGAGCCUAGUUUCUCUGCUUGAAAGAGCCACAAUUGAUUGAAAGCCUGUUGUAACCUAACCUGACUCCCGGAAGUGACAAAGGAACAAGUGAGCAGUAGGUUGUUCCGCUUACUAGGACUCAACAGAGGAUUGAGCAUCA` the bound/input enrichment was 0.245 ratio.
For `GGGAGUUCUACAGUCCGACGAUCGAAACCUGCAUACCAAUUGUUGCUGGAAUUGUAGCCAGAUUUGGUGCAGUAACUGUGAUAAGUCCACUAGAAUUGAUUAGAACCAAGAUGCAGUCCAAGAAGUUUUCUUACGUGGAACUGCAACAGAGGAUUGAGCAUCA`, the bound/input enrichment was 1.91 ratio.
`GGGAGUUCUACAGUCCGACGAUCAAGUGGUUACGGGAAAUUCUGAUCUGCAGAAAUAAAUUUCUUCUUAAAAAUAAGCAGGCAGAUAGAAGCUCCUGUCAUUCUCUCUACCUUUAUGGAGUAGGAUGUGAAAUGUCUGCUACUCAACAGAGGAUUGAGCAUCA` has a bound/input enrichment of 0.117 ratio.
`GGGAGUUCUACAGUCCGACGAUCUUUUUCUGUUCACAGUAUUUGUGUGUGUGCUUGUUUUGGCAGCUCAUUUUGGCUGUAUUAUAUAUUGAGUGAUGAAUUGAUCCUCUUUUUUCCCUAAGGGAUAUGAAUUGUUUUUCUUGUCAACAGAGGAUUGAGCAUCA` gave a bound/input enrichment of 0.611 ratio.
The bound/input enrichment of `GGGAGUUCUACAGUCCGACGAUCUAUUUUGUAAAUACUGUAUACCAUGUAUUAUGUGUACAUUGUUCAUACUUGAGAGGACAUUAUAGUUUUGUUAUGAAAGUAUGUAUUUUGCCCUGCAGCUGUGGUGGUGUUUUGUAUAUACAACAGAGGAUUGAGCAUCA` is reported as 0.424 ratio.
`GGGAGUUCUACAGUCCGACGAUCUUCUUCACCCGGAACCAUCUGCCUGUACCUAACCUGGAUCCAGACACCUAUCGCUUACACGUAGUAGGAGCACCUGGGGGUCAGUCACUGUCUCUUUCCCUGGAUGACUUGCACAACUUUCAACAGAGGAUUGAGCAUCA` has a bound/input enrichment of 0.147 ratio.

Study 2 — technique: protein binding microarray; molecule type: double-stranded DNA, one strand shown; sample: in vitro; concentration: not given; reference: not given; direction: higher = stronger binding
Target: Histone acetyltransferase KAT6A, winged helix 1, GST fusion (KAT6A, Homo sapiens, UniProt Q92794, residues 1-85)
Notes: 8-mer, flanks averaged, mean of 2 arrays, mostly near background
Residues (chain): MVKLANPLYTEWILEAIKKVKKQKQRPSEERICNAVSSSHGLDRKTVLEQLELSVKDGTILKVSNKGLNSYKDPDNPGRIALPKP
With `CCTTCCTC` the E-score was -0.202.
`AGGTACAA` has an E-score of -0.261.
`CATTATTA` gave an E-score of 0.0615.
The E-score of `ACGACTCG` is reported as -0.0813.
`AACCAGAT` has an E-score of -0.172.
For `GATATTAA`, the E-score was 0.027.
With `ACAGTCAA` the E-score was -0.209.
`ATCGTCCG` gave an E-score of 0.098.
`CGGTGTAA` gave an E-score of 0.0939.
`CAGTAGGG` has an E-score of -0.126.
The E-score of `CAAGTCAA` is reported as -0.222.
The E-score of `CCTCTCAG` is reported as -0.266.
With `CGATACTA` the E-score was 0.0837.
For `TAGTAGGA`, the E-score was -0.0701.
`GTTCGTAA` gave an E-score of -0.104.
With `ACGCCAAG` the E-score was -0.0817.
`CATCGGAG` gave an E-score of -0.0544.
`CAAGTAAA` has an E-score of -0.0511.
`TCACGCGA` gave an E-score of 0.136.
The E-score of `ACTACAGC` is reported as -0.0241.
`GGTCGACA` has an E-score of -0.0411.
`GTGAACAC` has an E-score of -0.03.
`CAGCATCG` has an E-score of -0.0876.
`AACAAACA` has an E-score of -0.219.
For `AGGAGGCC`, the E-score was -0.117.

Study 3 — technique: RNA Bind-n-Seq; molecule type: RNA; sample: in vitro; concentration: 200 nM; notes: whole 134-nt RNA, ends assumed; together with: 150 mM LiCl; reference: input library; direction: higher = stronger binding; each molecule: 7-deaza-guanosine replaces G
Target: Ras GTPase-activating protein-binding protein 1, full length (G3BP1, Homo sapiens, UniProt Q13283)
UniProt Q13283, sequence (whole entry, looked up): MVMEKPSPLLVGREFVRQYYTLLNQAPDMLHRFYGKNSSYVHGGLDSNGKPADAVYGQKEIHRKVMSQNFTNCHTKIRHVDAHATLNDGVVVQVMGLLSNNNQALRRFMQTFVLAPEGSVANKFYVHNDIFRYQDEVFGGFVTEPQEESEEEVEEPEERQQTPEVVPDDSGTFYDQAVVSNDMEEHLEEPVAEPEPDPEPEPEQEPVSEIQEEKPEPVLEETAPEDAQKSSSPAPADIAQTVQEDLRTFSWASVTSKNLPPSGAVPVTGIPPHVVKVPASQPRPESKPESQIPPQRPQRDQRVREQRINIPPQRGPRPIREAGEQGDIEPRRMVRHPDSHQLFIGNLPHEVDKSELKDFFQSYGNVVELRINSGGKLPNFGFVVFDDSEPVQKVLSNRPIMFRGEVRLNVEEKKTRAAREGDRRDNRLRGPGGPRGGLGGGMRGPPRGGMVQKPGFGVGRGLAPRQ
For `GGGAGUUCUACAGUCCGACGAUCUUUAGUGACUUUGGAUGAAGUAACUGAAGAGGAUGAAGACUCUCUGGCGGAUUUUAACAACCUUAAAGAAGAGCUUAAUUUUGUUACUGUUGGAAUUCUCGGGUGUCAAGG`, the log2 enrichment was -3.73.
`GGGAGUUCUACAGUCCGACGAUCGUCCUGUGCUACACAUCGUAUGUACCGAAUCGGAAAAAAAGGAAAAAAAGGUUUUUGGAAAGUAUUAUGUUACGCCGUUCGGAUCUGCACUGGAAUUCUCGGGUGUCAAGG` has a log2 enrichment of -1.83.
`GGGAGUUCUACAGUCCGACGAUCCGGGAGGUGGAUUUUGUUUAUUUUUUUAGCUCAUUUCCAGGGGUGGGAAUUUUUUUUUAAUAUGUGUCAUGAAUAAAGUUGUUUUUGAAAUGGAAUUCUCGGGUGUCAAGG` has a log2 enrichment of 0.248.
With `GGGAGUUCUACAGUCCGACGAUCCUGUGCUACACAUCGUAUGUACCGAAUCGGGGUUUUUUGGGGUUUUUUGGGUUUUUUGGGGAAAGUAUUAUGUUACGCCGUUCGGAUCUGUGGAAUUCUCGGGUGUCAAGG` the log2 enrichment was 1.39.
`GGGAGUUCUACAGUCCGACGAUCCCUGUGCUACACAUCGUAUGUACCGAAUCGGGGUUUUUGGGGUUUUUUUGGGGAAAGGGGAAAGUAUUAUGUUACGCCGUUCGGAUCUGCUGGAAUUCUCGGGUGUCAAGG` has a log2 enrichment of 0.885.
The log2 enrichment of `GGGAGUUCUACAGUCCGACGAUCGUCCUGUGCUACACAUCGUAUGUACCGAAUCAAACCCCCAAAUUUAAACCCCCCCAAAAAAGUAUUAUGUUACGCCGUUCGGAUCUGCACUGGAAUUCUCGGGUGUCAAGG` is reported as 0.528.
With `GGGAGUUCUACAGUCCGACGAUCCCUCAAGUCCUGUGCUACACAUCGUAUGUACCGAAUCGGUGGGUGGGGUGGGAAAGUAUUAUGUUACGCCGUUCGGAUCUGCACUUCCAGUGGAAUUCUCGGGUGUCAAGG` the log2 enrichment was -0.253.
`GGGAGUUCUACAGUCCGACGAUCACCAUGCAGGUGGGCAUCUUUGGGAAGUGGGGCAAGGGGGGGAUAGGGAGGGGGGUAACACUUUGGGAACAGGUGGUACCAGGUCGUUUCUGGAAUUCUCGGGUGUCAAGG` has a log2 enrichment of 0.222.

Study 4 — technique: RNA Bind-n-Seq; molecule type: RNA; sample: in vitro; concentration: 365 nM; reference: no-protein control; direction: higher = stronger binding
Target: RNA binding protein fox-1 homolog 2, RRM domain, GST-SBP tag (RBFOX2, Homo sapiens, UniProt O43251-10, residues 100-194)
Notes: natural RNA segment, single round, ends assumed
Construct (chain): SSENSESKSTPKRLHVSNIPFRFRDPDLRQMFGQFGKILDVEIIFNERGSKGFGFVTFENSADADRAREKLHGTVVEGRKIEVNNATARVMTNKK
`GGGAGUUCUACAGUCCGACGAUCAGUUUUUCUAAGCUAGAACCUUUGAGUCCCCCAAACUGCCUGAAGACUUAAGUUUUGUGGGCACUGGAAGUCACUUUGAUAGAUGGAUUGAAACUGUUCCUAUUUGCCCUUGGAAUUCUCGGGUGCCAA`: “RBNS enrichment (R)” 0.396.
For `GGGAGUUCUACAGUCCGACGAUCCCUGUGGCCCUAUGGUGUGAUGCUGUGUCUGUAUCUAUGUGUCUAUACAAAGGUACUUGCCCUUUCCCUUUGUAAACUACAUUUGACAUGGAUUAAAACAGUAUAAACAAUGGAAUUCUCGGGUGCCAA`, “RBNS enrichment (R)” read 0.466.
`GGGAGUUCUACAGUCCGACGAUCAACUAUGCAUUUUUGUCUGAAAGUAGGCACUGAAGCAUUGAAGUAAGGUAAGGAGACAUCCUCUUCGACACCGCUGUUGACCGAGGAGCUCAGGGCCACUUUGAGUGUGAUGGAAUUCUCGGGUGCCAA` — result for “RBNS enrichment (R)”: 0.359.
`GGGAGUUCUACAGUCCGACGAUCCUCCCCUCACCCCAACUCUAGGUUUCCAGGCCUCACAGCCAAGCUGAAGCUUGGAGAAAACUCUGCAUUCCCAUGAGGGCAAAGGCAGCUGCCCUCCCUGACCCUAUAGCUGGAAUUCUCGGGUGCCAA` — result for “RBNS enrichment (R)”: 1.06.
`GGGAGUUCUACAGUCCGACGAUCGGAAGAAAAACCACGCUAAAAAUCAAGCCACUGAAAACAAUUGCCCCCAGGUCUACCCAGCCCCUGGCUGUCCUUGGUCCUGUCUCCCCUCCUGCUGUAUUCAGGGGUGCUGGAAUUCUCGGGUGCCAA`: “RBNS enrichment (R)” 0.62.
`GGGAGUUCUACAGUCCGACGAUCUUUCUGCAAGCAACUUUAAUGACUUUUUUUAUACCACAUGGUCUCCCAGUUUCUAGAUGAAUGCAACAUGAUGAUGGUGAUGAUGACGAUGAGUUUAAUCAUUGUUCAUUUGGAAUUCUCGGGUGCCAA`: “RBNS enrichment (R)” 1.03.
For `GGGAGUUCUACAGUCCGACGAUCGGGAAGGGUGUGGGUGCUGGGAUGGGGGUGAAUUUCAAGUUGAAACACGAUGAUGUGGUCUGCUUGCUCUCUGCUUAGACAGGCUUUAAGACCAAUUGGAUUUUCAUGGAUGGAAUUCUCGGGUGCCAA`, “RBNS enrichment (R)” read 1.29.
`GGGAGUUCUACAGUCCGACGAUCCAUACAGCAGCCCCCUGGACAGAAUCAGCAUUUCAGCUCAGCUGGCCUGGGAUGGGCCAGGCUGGUCCUGGCUGCCUGUUCCCUGUGCUCUUCAGAAUUACUGUUUUUGUUGGAAUUCUCGGGUGCCAA` — result for “RBNS enrichment (R)”: 0.375.
`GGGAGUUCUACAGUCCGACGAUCUCCUCCAGCAUAACCCCAGUUGGCUGACGUGAGCCUAUUCCAUCUGAGGCCAUUCUCUCUUUGGUUCCUUUCUAAUCUAUCCACACAUGCCUUUCCCUUCUUUGAUCCCCUGGAAUUCUCGGGUGCCAA` — result for “RBNS enrichment (R)”: 1.67.
